Assay results gathered from unrelated publications.
Compare with care: the assays were run in different laboratories. ± gives the spread as reported.
Technique: steady-state kinetics
B1: enzyme (Brachypodium distachyon, UniProt I1IPY7); chain MEQGKAALGWAARDASGHLSPYNFSRRVQKDDDVTIKVLFCGICHTDLHIIKNEWGNALYPIVPGHEVVGVVTDVGPGVKNFKAGETVGVGYFLDSCRTCDSCSKGHENYCPTLVLTSNGVDYDGATTQGGFSDVVVVNQDYVVRVPDTLPPDGAAPLLCAGVTVYSPMMQYGLNAPGKHLGVVGLGGLGHMAVKFGKAFGMKVTVISSSLRKREEALDRLGADDFLVSSDAEQMKAAAGAMDGIIDTVSAGHPIVPLLELLRPMGQMVVCGAPSEPLQLPAYAVITGGKRIAGNGVGSVRDCQAMLDFAGEHGITADVEVVKMDYVNTAVERLERNDVRYRFVIDVAGSLQQGGAA
B2: protein (Streptomyces sp. NRRL 30471, UniProt F2WUC8); chain MVRADYRTPEVNDVVRYRYGAAETALLKNRISEFGFTMAEVPGECAPQTEIERLGKALGLGEPYVAALYQRGDTRAHGALYTDVRSRAHNTHPGFGTTEGQTIHVDGLLEPIGTIRTTILFCVRPAVSGGRTVLFNSSAAFETLRHSDPAAAESLRDPGVLRRRSTLPNVDAGHTGPAFAYDNGLLITRYSEGPTVEWNAPPGRSAELERALNFLRAAAEDKRYSIALRLGAGEALIFRNDVISHGREAYRDDPAAPRHLIRTLYLESP
B3: NahK (Pseudomonas putida, UniProt Q1XGK3); chain MNRTLTREQVLALAEHIENAELNVHDIGKVTNDFPEMTFADAYDVQWEIRRRKEARGNKIVGLKMGLTSWAKMAQMGVETPIYGFLADYFSVPDGGVVDCSKLIHPKIEAEISVVTKAPLHGPGCHLGDVIAAIDYVIPTVEVIDSRYENFKFDLISVVADNASSTRFITGGRMASLEEVDLRTLGVVMEKNGEVVELGAGAAVLGHPLSSVAMLANLLAERGEHIPAGTFIMTGGITAAVPVAPGDNITVRYQGLGSVSARFI
B4: enzyme E323G (UniProt H9KVH3); chain ADASQIVSEMGAGWNLGNQLEAAVNGTPNETAWGNPTVTPELIKKVKAAGFKSIRIPVSYLNNIGSAPNYTINAAWLNRIQQVVDYAYNEGLYVIINIHGDGYNSVQGGWLLVNGGNQTAIKEKYKKVWQQIATKFSNYNDRLIFESMNEVFDGNYGNPNSAYYTNLNAYNQIFVDTVRQTGGNNNARWLLVPGWNTNIDYTVGNYGFTLPTDNYRSSAIPSSQKRIMISAHYYSPWDFAGEENGNITQWGATSTNPAKKSTWGQEDYLESQFKSMYDKFVTQGYPVVIGGFGSIDKTSYDSSNNVYRAAYAKAVTAKAKKYKMVPVYWDNGHNGQHGFALFNRSNNTVTQQNIINAIMQGMQ
B5: enzyme (Halomonas elongata, UniProt E1V931); chain MKIAVPKEIKNHEYRVALTPSGARELVGRGHDVIVQAAAGEGAGFSDADFEAAGARLEADVAKLWDDAELILKVKEPQAEEVARLSAGQTLFTYLHLAAEESLTKGLLDSGATCIAYETITAPEGGLPLLAPMSTVAGRMAVQAGAHSLEKAQGGAGILLPGVPGVAPARVTVIGGGVVGENAARMALGLGAEVTVLDKSIPRLETLDDRYQGRMKTVFSTADALEEAVRESDLIIGAVLVPGAAAPKLITRDMLSDMKPGSVLVDVAIDQGGCFETSKPTTHAEPTYVVDGVVHYCVANMPGAVARTSTQALTNATLPFVVALADKGWQKALADDDHFAAGLNVHDGKLTYRAVAEAFGLEYVEAASLIG
B6: protein Y93T (Thermus thermophilus, UniProt Q5SKR5); chain MSAPKPFVIGIAGGTASGKTTLAQALARTLGERVALLPMDHYYKDLGHLPLEERLRVNYDHPDAFDLALYLEHAQALLRGLPVEMPVYDFRATTRSPRRTPVRPAPVVILEGILVLYPKELRDLMDLKVFVDADADERFIRRLKRDVLERGRSLEGVVAQYLEQVKPMHLHFVEPTKRYADVIVPRGGQNPVALEMLAAKALARLARMGAA
B7: ycjS (Escherichia coli, UniProt P77503); chain MKSAMTSSPLRVAIIGAGQVADKVHASYYCTRNDLELVAVCDSRLSQAQALAEKYGNASVWDDPQAMLLAVKPDVVSVCSPNRFHYEHTLMALEAGCHVMCEKPPAMTPEQAREMCDTARKLGKVLAYDFHHRFALDTQQLREQVTNGVLGEIYVTTARALRRCGVPGWGVFTNKELQGGGPLIDIGIHMLDAAMYVLGFPAVKSVNAHSFQKIGTQKSCGQFGEWDPATYSVEDSLFGTIEFHNGGILWLETSFALNIREQSIMNVSFCGDKAGATLFPAHIYTDNNGELMTLMQREIADDNRHLRSMEAFINHVQGKPVMIADAEQGYIIQQLVAALYQSAETGTRVEL
B8: TcC (Trypanosoma cruzi, UniProt Q4DGA3); chain MPREYEFAEKILFTEEEIRTRIMEVAKRIADDYKGKGLRPYVNPLVLISVLKGSFMFTADLCRALSDFNVPVRMEFICVSSYGEGVTSSGQVRMLLDTRHSIEGHHVLIVEDIVDTALTLNYLYHMYFTRRPASLKTVVLLDKREGRRVPFSADYVVANIPNAFVIGYGLDYDDTYRELRDIVVLRPEVYAEREAARQKKQRAIGSADTDRDAKREFHSKY
B9: POLK (Homo sapiens, UniProt Q9UBT6); chain MDSTKEKCDSYKDDLLLRMGLNDNKAGMEGLDKEKINKIIMEATKGSRFYGNELKKEKQVNQRIENMMQQKAQITSQQLRKAQLQVDRFAMELEQSRNLSNTIVHIDMDAFYAAVEMRDNPELKDKPIAVGSMSMLSTSNYHARRFGVRAAMPGFIAKRLCPQLIIVPPNFDKYRAVSKEVKEILADYDPNFMAMSLDEAYLNITKHLEERQNWPEDKRRYFIKMGSSVENDNPGKEVNKLSEHERSISPLLFEESPSDVQPPGDPFQVNFEEQNNPQILQNSVVFGTSAQEVVKEIRFRIEQKTTLTASAGIAPNTMLAKVCSDKNKPNGQYQILPNRQAVMDFIKDLPIRKVSGIGKVTEKMLKALGIITCTELYQQRALLSLLFSETSWHYFLHISLGLGSTHLTRDGERKSMSVERTFSEINKAEEQYSLCQELCSELAQDLQKERLKGRTVTIKLKNVNFEVKTRASTVSSVVSTAEEIFAIAKELLKTEIDADFPHPLRLRLMGVRISSFPNEEDRKHQQRSIIGFLQAGNQALSATECTLEKTDKDKFVKPLEMSHKKSFFDKKRSERKWSHQDTFKCEAVNKQSFQTSQPFQVLKKKMNENLEISENSDDCQILTCPVCFRAQGCISLEALNKHVDECLDGPSISENFKMFSCSHVSATKVNKKENVPASSLCEKQDYEAHPKIKEISSVDCIALVDTIDNSSKAESIDALSNKHSKEECSSLPSKSFNIEHCHQNSSSTVSLENEDVGSFRQEYRQPYLCEVKTGQALVCPVCNVEQKTSDLTLFNVHVDVCLNKSFIQELRKDKFNPVNQPKESSRSTGSSSGVQKAVTRTKRPGLMTKYSTSKKIKPNNPKHTLDIFFK

Substance	substrate	conditions	quantity	value
B1 (enzyme)	NC(=O)C1=CN([C@@H]2O[C@H](COP(=O)(O)OP(=O)(O)OC[C@H]3O[C@@H](n4cnc5c(N)ncnc54)[C@H](OP(=O)(O)O)[C@@H]3O)[C@@H](O)[C@H]2O)C=CC1	pH 5.35, 23 °C, cofactor varied	kcat	6.45 s⁻¹
Plasma amine oxidase (Bos taurus, UniProt Q29437)	CNCCOc1ccc2cc(CN)ccc2c1	pH 7.2, 30 °C	kcat	0.212 ± 0.002 s⁻¹
protein (Stereum hirsutum, UniProt P9WEW1)	CC(C)=CCC/C(C)=C/CC/C(C)=C/CO[P@@](=O)(O)OP(=O)(O)O	pH 8, NaCl 200 mM, with: FPP 1–100 µM	kcat	0.0037 ± 0.0006 s⁻¹
enzyme (Thermus thermophilus, UniProt Q5SJ64)	Nc1nc2c([nH]c(=O)n2[C@H]2C[C@H](O)[C@@H](COP(=O)(O)OP(=O)(O)OP(=O)(O)O)O2)c(=O)[nH]1	pH 7.5, 37 °C	kcat	0.0008 ± 0.0001 s⁻¹
enzyme (Plasmodium falciparum, UniProt Q8I302)	CC1=CC(=O)c2ccccc2C1=O	pH 8, 100 °C, not purified	kcat	0.0767 ± 0.00333 s⁻¹
UGT1A9 (Homo sapiens, UniProt O60656)	Cc1ccc(O)cc1	pH 7.4, 37 °C	Km	57.3 µM
AtTPS18 (Arabidopsis thaliana, UniProt Q9LUE2)	CC(C)=CCC/C(C)=C/CC/C(C)=C/CC/C(C)=C/CC/C(C)=C/COP(=O)(O)OP(=O)(O)O	pH 7.5, 30 °C, product C7 measured, with: Mg2+ 10 mM	kcat	0.11 ± 0.017 s⁻¹
B2 (protein)	O=c1ccn([C@H]2C[C@H](O)[C@@H](COP(=O)(O)O)O2)c(=O)[nH]1	pH 7.5, 30 °C, with: αKG 2 mM, ascorbic acid 2 mM, FeCl2 0.4 mM	kcat	2.3 ± 0.2 s⁻¹
B3 (NahK)	O=C(O)C/C=C/C(=O)C(=O)O	pH 7.4, 25 °C, sodium phosphate 20 mM, with: MgCl2 5 mM	kcat	98.8 ± 2.7 s⁻¹
B4 (enzyme E323G)	OC[C@H]1O[C@@H](O[C@H]2[C@@H](OC[C@H]3O[C@@H](O[C@H]4[C@H](O)[C@@H](O)[C@H](O[C@H]5[C@H](O)[C@@H](O)[C@@H](F)O[C@@H]5CO)O[C@@H]4CO[C@H]4OC[C@@H](O)[C@H](O)[C@H]4O[C@@H]4O[C@H](CO)[C@H](O)[C@H](O)[C@H]4O)[C@H](O)[C@@H](O)[C@@H]3O[C@@H]3O[C@H](CO[C@H]4OC[C@@H](O)[C@H](O)[C@H]4O)[C@@H](O)[C@H](O)[C@H]3O)OC[C@@H](O)[C@@H]2O)[C@H](O)[C@@H](O)[C@H]1O	pH 7.5, 30 °C, apparent	kcat	0.482 ± 0.02 s⁻¹
PLBD1 self-cleaved, cathepsin L-processed (Homo sapiens, UniProt Q6P4A8)	CC[C@H](C)[C@H](N)C(=O)Nc1ccc2c(C)cc(=O)oc2c1	pH 4.5, 37 °C, with: cathepsin L	kcat	0.73 s⁻¹
B5 (enzyme)	NC(=O)C1=CN([C@@H]2O[C@H](COP(=O)(O)OP(=O)(O)OC[C@H]3O[C@@H](n4cnc5c(N)ncnc54)[C@H](O)[C@@H]3O)[C@@H](O)[C@H]2O)C=CC1	pH 8, 25 °C, cofactor varied	kcat	11.2 s⁻¹
B6 (protein Y93T)	Nc1ccn([C@@H]2O[C@H](CO)[C@@H](O)[C@H]2O)c(=O)n1	pH 7.2, 25 °C, KCl 100 mM, with: ATP 100–200 µM	kcat	3.1 ± 0.1 s⁻¹
B7 (ycjS)	OC[C@H]1OC[C@H](O)[C@@H](O)[C@@H]1O	pH 8, 30 °C, with: NAD+ 2.0 mM	kcat	0.17 ± 0.01 s⁻¹
B8 (TcC)	O=c1[nH]c(=O)c2[nH]cnc2[nH]1	pH 8.3, 37 °C, apparent, with: PRPP 1 mM, MgCl2 12 mM	kcat	0.008 ± 0.0002 s⁻¹
B9 (POLK)	Cc1cn([C@H]2C[C@H](O)[C@@H](COP(=O)(O)OP(=O)(O)OP(=O)(O)O)O2)c(=O)[nH]c1=O	pH 8, 37 °C, misinsertion opposite dT, with: Mg2+	kcat	0.00183 ± 0.000167 s⁻¹
HCT (Coleus scutellarioides, UniProt E8ZAP2)	O=C(O)C1=C[C@@H](O)[C@@H](O)[C@H](O)C1	pH 8, pseudo-first-order, with: p-coumaroyl CoA	kcat	30.1 ± 0.7 s⁻¹
enzyme (Triticum aestivum, UniProt A0A6J4BJG4)	O=C1[C@@H](O[C@@H]2O[C@H](CO)[C@@H](O)[C@H](O)[C@H]2O)Oc2ccccc2N1O	pH 7.2, 30 °C	kcat	0.508 s⁻¹
